Results collected from several papers.
Numbered parts are unrelated; each lists some results of a single study.
UniProt P07333, sequence (whole entry, looked up): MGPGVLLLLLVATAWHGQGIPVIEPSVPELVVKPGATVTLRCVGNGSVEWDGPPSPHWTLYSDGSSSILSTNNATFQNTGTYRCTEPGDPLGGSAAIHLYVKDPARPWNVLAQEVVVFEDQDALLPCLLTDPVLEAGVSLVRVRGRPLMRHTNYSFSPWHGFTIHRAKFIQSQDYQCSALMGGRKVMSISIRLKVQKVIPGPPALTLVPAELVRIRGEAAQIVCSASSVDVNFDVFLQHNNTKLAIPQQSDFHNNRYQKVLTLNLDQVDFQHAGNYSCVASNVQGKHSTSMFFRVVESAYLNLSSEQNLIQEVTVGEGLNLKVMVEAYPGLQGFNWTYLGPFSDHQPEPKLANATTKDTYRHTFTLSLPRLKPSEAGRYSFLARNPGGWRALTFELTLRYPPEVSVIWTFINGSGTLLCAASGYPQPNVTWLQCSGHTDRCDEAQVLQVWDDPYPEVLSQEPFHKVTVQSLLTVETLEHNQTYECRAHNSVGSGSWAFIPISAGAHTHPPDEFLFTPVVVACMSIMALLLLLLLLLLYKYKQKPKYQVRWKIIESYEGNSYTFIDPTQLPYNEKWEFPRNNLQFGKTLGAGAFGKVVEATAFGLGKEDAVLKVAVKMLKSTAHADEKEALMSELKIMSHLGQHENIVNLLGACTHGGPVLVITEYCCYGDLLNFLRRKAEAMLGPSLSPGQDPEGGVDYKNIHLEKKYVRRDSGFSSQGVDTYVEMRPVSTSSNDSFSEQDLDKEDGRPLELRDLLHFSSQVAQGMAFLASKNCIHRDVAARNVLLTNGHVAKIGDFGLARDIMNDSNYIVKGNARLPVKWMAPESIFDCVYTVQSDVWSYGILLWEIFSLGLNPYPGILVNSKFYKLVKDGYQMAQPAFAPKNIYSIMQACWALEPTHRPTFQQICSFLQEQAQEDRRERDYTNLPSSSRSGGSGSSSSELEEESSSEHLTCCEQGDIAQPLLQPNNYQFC
UniProt O15146, sequence (whole entry, looked up): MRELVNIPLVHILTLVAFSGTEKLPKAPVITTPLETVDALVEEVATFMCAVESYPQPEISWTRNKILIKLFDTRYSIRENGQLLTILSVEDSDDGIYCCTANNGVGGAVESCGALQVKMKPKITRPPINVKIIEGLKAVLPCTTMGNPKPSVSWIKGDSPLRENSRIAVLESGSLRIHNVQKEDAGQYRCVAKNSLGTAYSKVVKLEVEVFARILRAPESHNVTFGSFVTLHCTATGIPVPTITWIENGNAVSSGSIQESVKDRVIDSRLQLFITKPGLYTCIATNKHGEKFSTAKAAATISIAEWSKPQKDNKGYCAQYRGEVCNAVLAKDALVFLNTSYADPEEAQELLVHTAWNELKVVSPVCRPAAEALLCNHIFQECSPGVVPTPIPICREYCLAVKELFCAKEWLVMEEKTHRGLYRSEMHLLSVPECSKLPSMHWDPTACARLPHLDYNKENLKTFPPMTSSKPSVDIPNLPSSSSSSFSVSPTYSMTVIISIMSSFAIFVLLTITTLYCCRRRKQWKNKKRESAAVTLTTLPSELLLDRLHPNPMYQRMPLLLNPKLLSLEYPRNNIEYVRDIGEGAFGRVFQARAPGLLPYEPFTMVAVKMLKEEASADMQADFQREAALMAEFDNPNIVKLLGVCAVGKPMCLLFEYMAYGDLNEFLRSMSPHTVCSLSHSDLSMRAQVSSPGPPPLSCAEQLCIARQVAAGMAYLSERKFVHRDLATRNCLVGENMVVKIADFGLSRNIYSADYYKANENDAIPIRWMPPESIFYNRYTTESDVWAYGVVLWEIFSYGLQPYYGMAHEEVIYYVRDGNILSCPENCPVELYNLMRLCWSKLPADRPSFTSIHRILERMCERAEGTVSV
UniProt Q9BVS4, sequence (whole entry, looked up): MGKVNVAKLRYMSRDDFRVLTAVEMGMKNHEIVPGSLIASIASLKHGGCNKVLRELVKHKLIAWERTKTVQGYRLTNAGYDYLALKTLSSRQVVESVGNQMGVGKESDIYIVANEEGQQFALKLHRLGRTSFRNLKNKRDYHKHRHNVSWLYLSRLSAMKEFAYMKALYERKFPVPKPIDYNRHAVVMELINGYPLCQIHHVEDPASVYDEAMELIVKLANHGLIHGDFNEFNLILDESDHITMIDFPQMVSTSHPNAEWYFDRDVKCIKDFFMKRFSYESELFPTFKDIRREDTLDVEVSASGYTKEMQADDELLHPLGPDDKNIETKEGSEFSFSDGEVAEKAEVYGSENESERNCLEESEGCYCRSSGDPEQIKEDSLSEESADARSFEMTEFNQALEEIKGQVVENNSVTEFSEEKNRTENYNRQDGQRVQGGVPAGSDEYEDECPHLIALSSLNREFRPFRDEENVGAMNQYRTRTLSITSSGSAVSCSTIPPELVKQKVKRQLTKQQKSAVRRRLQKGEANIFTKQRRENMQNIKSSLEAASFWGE
UniProt P11362, sequence (whole entry, looked up): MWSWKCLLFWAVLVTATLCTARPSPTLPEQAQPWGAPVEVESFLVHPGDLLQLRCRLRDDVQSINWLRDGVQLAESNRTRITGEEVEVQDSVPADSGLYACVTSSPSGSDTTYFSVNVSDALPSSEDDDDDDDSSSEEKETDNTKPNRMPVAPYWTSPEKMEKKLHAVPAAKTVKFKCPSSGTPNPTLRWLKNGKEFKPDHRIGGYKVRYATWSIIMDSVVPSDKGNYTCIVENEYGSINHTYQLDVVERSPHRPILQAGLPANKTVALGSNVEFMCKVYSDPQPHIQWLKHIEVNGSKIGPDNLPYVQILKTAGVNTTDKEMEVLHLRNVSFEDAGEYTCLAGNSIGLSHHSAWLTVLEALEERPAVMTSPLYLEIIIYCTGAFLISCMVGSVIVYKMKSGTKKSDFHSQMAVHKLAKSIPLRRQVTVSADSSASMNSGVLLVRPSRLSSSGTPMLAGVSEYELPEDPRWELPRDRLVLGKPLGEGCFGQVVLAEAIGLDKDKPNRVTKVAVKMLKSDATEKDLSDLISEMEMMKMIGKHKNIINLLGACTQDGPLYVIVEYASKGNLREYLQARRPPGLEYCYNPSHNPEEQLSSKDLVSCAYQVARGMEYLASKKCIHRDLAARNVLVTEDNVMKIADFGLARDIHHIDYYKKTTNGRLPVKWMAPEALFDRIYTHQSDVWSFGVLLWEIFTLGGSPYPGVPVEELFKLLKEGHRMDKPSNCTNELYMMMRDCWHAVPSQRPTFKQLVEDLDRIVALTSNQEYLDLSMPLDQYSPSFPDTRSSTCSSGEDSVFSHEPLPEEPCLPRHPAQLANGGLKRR
UniProt Q9NYL2, sequence (whole entry, looked up): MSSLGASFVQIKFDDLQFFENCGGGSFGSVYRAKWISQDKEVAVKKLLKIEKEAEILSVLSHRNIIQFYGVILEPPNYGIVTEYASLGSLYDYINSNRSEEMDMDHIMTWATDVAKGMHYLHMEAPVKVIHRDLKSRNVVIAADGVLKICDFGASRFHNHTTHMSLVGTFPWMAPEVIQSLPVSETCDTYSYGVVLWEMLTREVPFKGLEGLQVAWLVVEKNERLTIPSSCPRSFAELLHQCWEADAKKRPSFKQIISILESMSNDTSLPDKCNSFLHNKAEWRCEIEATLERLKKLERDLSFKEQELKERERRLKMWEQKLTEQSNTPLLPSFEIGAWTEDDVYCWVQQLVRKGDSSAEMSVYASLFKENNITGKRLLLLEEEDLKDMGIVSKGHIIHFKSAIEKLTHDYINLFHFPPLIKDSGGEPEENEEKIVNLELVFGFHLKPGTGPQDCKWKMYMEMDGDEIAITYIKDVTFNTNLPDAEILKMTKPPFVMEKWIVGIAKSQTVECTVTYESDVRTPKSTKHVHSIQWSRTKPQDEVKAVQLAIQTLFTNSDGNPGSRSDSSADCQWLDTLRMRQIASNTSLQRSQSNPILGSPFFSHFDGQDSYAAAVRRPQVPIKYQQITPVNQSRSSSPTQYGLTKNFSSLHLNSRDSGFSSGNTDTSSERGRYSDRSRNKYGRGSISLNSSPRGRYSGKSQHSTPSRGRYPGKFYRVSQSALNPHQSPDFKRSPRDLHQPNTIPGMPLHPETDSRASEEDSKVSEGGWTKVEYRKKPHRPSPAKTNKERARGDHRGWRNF
UniProt Q9UQM7, sequence (whole entry, looked up): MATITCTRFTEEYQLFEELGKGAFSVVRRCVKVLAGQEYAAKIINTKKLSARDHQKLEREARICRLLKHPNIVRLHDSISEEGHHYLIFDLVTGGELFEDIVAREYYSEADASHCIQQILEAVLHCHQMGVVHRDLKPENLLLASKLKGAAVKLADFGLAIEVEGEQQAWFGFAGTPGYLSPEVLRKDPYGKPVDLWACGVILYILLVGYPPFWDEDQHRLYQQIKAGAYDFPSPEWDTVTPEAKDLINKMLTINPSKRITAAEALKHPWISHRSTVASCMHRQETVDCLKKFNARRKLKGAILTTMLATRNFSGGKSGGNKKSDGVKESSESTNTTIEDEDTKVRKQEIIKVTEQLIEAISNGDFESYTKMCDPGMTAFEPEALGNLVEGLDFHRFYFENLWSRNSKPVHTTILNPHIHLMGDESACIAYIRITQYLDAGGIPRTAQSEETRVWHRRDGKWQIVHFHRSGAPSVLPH

Set 1 — cell line: A-375; concentration: 100 µM; time: 36 h
`CN(C)[C@@H](CCOc1cccc2ccccc12)c1ccccc1` has a viability of -2.6%.
`CC(C)NCC(O)COc1cccc2[nH]ccc12` (stereo not shown) has a viability of 103%.
The viability of `CCCCC(=O)N(Cc1ccc(-c2ccccc2-c2nnn[nH]2)cc1)[C@H](C(=O)O)C(C)C` is reported as 95%.
`CC(C(=O)O)c1ccc2c(c1)Cc1cccnc1O2` (stereo not shown) has a viability of 105%.
`CC1=C(/C=C/C(C)=C/C=C/C(C)=C/C=C/C=C(C)/C=C/C=C(C)/C=C/C2=C(C)CCCC2(C)C)C(C)(C)CCC1` has a viability of 41.6%.
With `CCOC(=O)[C@H](CCc1ccccc1)N[C@@H](C)C(=O)N1Cc2ccccc2C[C@H]1C(=O)O` the viability was 106%.
The viability of `CCCOc1ccc(C(=O)OCCN(CC)CC)cc1N` is reported as 84%.
`CN(C)CCc1c[nH]c2ccc(C[C@H]3COC(=O)N3)cc12` gave a viability of 110%.
With `N[C@@H](C(=O)N[C@@H]1C(=O)N2C(C(=O)O)=C(Cl)CS[C@H]12)c1ccccc1` the viability was 96%.
For `CC(=O)N1CCN(c2ccc(OC[C@@H]3CO[C@@](Cn4ccnc4)(c4ccc(Cl)cc4Cl)O3)cc2)CC1` (racemic), the viability was -0.0191%.
With `CO[C@H]1/C=C/O[C@@]2(C)Oc3c(C)c(O)c4c(O)c(c5c(nc6cc(C)ccn65)c4c3C2=O)NC(=O)/C(C)=C\C=C\[C@H](C)[C@H](O)[C@@H](C)[C@@H](O)[C@@H](C)[C@H](OC(C)=O)[C@@H]1C` the viability was 11%.
The viability of `CC1(C)O[C@H]2CC(=O)OC[C@]23[C@H]2CC[C@@]4(C)[C@H](c5ccoc5)OC(=O)[C@H]5O[C@]54[C@]2(C)C(=O)C[C@@H]13` is reported as 119%.

Set 2 — read-out: ligand displacement; concentration: 10 µM
Target: 5-hydroxytryptamine receptor 2B (HTR2B, Homo sapiens, UniProt P41595)
UniProt P41595, sequence (whole entry, looked up): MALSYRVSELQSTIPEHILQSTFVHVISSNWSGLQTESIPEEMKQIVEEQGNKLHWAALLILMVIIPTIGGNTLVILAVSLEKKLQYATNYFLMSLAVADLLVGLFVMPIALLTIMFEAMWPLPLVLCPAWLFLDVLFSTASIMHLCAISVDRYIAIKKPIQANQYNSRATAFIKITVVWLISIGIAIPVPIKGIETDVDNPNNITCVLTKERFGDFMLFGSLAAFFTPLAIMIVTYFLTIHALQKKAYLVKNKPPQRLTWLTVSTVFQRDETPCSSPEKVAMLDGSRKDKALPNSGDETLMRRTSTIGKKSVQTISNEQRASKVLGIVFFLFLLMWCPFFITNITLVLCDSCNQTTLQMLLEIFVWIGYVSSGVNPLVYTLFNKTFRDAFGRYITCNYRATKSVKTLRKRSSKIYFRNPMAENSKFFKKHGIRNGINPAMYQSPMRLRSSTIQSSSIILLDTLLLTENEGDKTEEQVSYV
The inhibition of `Cn1cc(Cl)c2c(Oc3c(F)cc(Nc4cc(Cl)nc(N)n4)cc3F)ccnc21` is reported as 17.3%.
The inhibition of `O=C1NC(c2ccccn2)Sc2ccccc21` (stereo not shown) is reported as -5.37%.
`CNCc1ccccc1-c1csc([C@@H](C)Nc2nc(C)nc3cc(OC)c(OC)cc23)c1` has an inhibition of 86.9%.
With `O=C(NCCCC1CCCCC1)c1ccc(CNC(=O)c2cnn(-c3ccccc3)c2C(F)(F)F)cc1` the inhibition was 3.69%.
`Cc1ccccc1Oc1cc(-n2c(=O)cc(C(F)(F)F)[nH]c2=O)c2ccccc2c1Cl` gave an inhibition of -0.49%.
With `O=C(NS(=O)(=O)c1ccc(NCC2CCOCC2)c([N+](=O)[O-])c1)c1ccc(N2CCN(Cc3ccc(C(F)(F)F)cc3-c3ccc(Cl)cc3)CC2)cc1Oc1cnc2[nH]ccc2c1` the inhibition was -2.34%.
The inhibition of `CC(=O)Nc1ncc(CN2CCC[C@H](Cc3cc(C)nc(C)c3)C2)s1` is reported as 6.7%.
The inhibition of `CC(=O)c1c(NS(C)(=O)=O)c2cc(-c3ccc(Cl)cc3)c(-c3ccc(Cl)cc3Cl)nc2n(C)c1=O` is reported as -0.601%.
`COc1cccc(CNC(=O)c2nc3scc(COCc4ccc(C(=O)O)cc4)c3c(=O)[nH]2)c1` has an inhibition of -9.07%.
`Nc1c(C(=O)NCc2ccc(C(=O)NCCCC3CCCCC3)cc2)cnn1-c1ccccc1` has an inhibition of 19.9%.
`O=C(N[C@H]1CCCCC/C=C\C2C[C@@]2(C(=O)O)NC(=O)[C@@H]2C[C@@H](Oc3ccncc3)CN2C1=O)OC1CCCC1` (stereo partly shown) gave an inhibition of 1.85%.
The inhibition of `CCc1ccccc1C(=O)Nc1n[nH]c2c(C)c(F)c(C3C(C#N)=C(C)N(C)C(C)=C3C#N)cc12` is reported as 32.5%.
With `NS(=O)(=O)c1cc(NC(=O)C2(c3ccccc3Cl)CC2)ccc1Oc1cccc(Cl)c1` the inhibition was 21.1%.
`Cc1ccc(-c2cnc([C@@]3(O)CC[C@H](C(=O)O)C(C)(C)C3)s2)cc1Nc1cccc(C(F)(F)F)n1` has an inhibition of 77.9%.
For `O=C(NCc1ncc(C(F)(F)F)cc1Cl)c1ccc2c(c1)C1(CCS(=O)(=O)CC1)[C@@H](C1CC1)N2S(=O)(=O)c1ccc(F)cc1`, the inhibition was -2.32%.
`CCS(=O)(=O)c1cc2cc(C[C@@](O)(CC(C)(C)c3ccc(F)cc3C(N)=O)C(F)(F)F)[nH]c2cn1` gave an inhibition of -7.85%.
`COc1ccc2c(c1)O[C@H](c1ccc(OC)c(OC)c1)C[C@@H]2NC(=O)C1(c2ccc3c(c2)OC(F)(F)O3)CC1` has an inhibition of 1.62%.
With `CN(C)CC#Cc1ccc(OCCCc2sc(N3CCc4cccc(C(=O)Nc5nc6ccccc6s5)c4C3)nc2C(=O)O)c(F)c1` the inhibition was 5.67%.
`O=C(c1ccc(F)cc1)N1CC(COc2ccc(Br)cc2)(C(=O)O)C1` has an inhibition of -2.5%.
`COc1ccc2cc(OCC3(C(=O)O)CN(C(=O)c4ccc(F)cc4)C3)ccc2c1` gave an inhibition of -0.11%.
`N#CN1CC[C@H](C(=O)Nc2nc3c(s2)CN(C(=O)CN=[N+]=[N-])CC3)C1` gave an inhibition of 5.22%.
`O=C(Nc1cccnn1)N1CC(CC=Cc2cncc(Oc3ccc(C(F)(F)F)cn3)n2)C1` has an inhibition of 2.28%.

Set 3 — read-out: enzyme activity; mode: inhibitor; concentration: 0.5 µM; reference: control
Target: Testis-specific serine/threonine-protein kinase 1 (TSSK1B, Homo sapiens, UniProt Q9BXA7)
Construct (Q9BXA7 1-367): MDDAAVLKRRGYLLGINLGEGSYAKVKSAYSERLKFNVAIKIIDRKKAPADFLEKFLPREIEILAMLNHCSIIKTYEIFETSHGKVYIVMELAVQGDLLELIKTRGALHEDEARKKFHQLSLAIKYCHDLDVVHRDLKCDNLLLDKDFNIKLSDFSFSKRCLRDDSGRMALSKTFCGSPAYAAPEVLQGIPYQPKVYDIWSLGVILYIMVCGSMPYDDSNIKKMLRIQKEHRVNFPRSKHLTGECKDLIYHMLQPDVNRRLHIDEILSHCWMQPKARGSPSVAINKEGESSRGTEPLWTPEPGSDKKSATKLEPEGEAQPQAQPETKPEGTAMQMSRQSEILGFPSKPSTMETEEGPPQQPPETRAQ
`CN(C)CCCn1cc(C2=C(c3c[nH]c4ccccc34)C(=O)NC2=O)c2ccccc21` gave a remaining activity of 89.8%.
With `Cn1cnc2cc3c(Nc4cccc(Br)c4)ncnc3cc21` the remaining activity was 104%.
With `Nc1[nH]nc2nnc(-c3c(-c4ccccc4)nn4ccccc34)cc12` the remaining activity was 102%.
The remaining activity of `O=C1NC(=O)/C(=C/c2ccc3nccnc3c2)S1` is reported as 78.6%.
With `C[S+]([O-])c1ccc(-c2nc(-c3ccncc3)c(-c3ccc(F)cc3)[nH]2)cc1` (stereo not shown) the remaining activity was 108%.
`CCN1/C(=C/C(C)=O)Sc2ccc(OC)cc21` gave a remaining activity of 110%.
With `O=C(Nc1ccc(Cl)cc1)c1ccccc1NCc1ccncc1` the remaining activity was 103%.
The remaining activity of `Cc1ccc(NC(=O)c2ccc(CN3CCN(C)CC3)cc2)cc1Nc1nccc(-c2cccnc2)n1` is reported as 97%.
`CCOc1cc2ncnc(Nc3cccc(Br)c3)c2cc1OCC` has a remaining activity of 92.9%.
For `COc1ccc(-c2cnc3c(-c4ccsc4)cnn3c2)cc1`, the remaining activity was 99.1%.
For `Cn1cc(/C=C2\C(=O)Nc3ccc(S(N)(=O)=O)cc32)c2ccccc21`, the remaining activity was 17%.
`CC(=O)O/N=C1/C(c2c(O)[nH]c3cc(Br)ccc23)=Nc2ccccc21` gave a remaining activity of 92.4%.
The remaining activity of `CC(C)c1nn(-c2c(Cl)cccc2Cl)c2nc(Cc3ccc(OCCO)cc3)[nH]c(=O)c12` is reported as 104%.
With `COc1ccc(Cl)cc1NC(=O)Nc1cc(C)nc2ccccc12` the remaining activity was 94.6%.
`CC(C)[C@H](CO)Nc1nc(Nc2cccc(Cl)c2)c2ncn(C(C)C)c2n1` gave a remaining activity of 102%.
`CS(=O)(=O)CCNCc1ccc(-c2ccc3ncnc(Nc4ccc(OCc5cccc(F)c5)c(Cl)c4)c3c2)o1` has a remaining activity of 79%.
For `Cc1nc(Nc2ncc(C(=O)Nc3c(C)cccc3Cl)s2)cc(N2CCN(CCO)CC2)n1`, the remaining activity was 93.8%.
For `COc1cc2ncnc(Nc3ccc(OCc4ccccc4)cc3)c2cc1OC`, the remaining activity was 106%.
`O=c1cc(N2CCOCC2)oc2c1ccc1ccccc12` gave a remaining activity of 101%.
`CCC(=O)Nc1ccc2ncnc(Nc3cccc(Br)c3)c2c1` has a remaining activity of 73.2%.
`COc1cc2ncc(-c3ccccc3)nc2cc1OC` gave a remaining activity of 94.5%.
With `COc1cc2ncnc(N3CCN(C(=O)Nc4ccc(Oc5ccccc5)cc4)CC3)c2cc1OC` the remaining activity was 65.2%.

Set 4 — concentration: 1 µM
Compound: Cc1ccc(NC(=O)c2ccnc(C(F)(F)F)c2)cc1-c1cc(OCCO)nc(N2CCOCC2)c1
The remaining binding was 100% (PRKACB (Homo sapiens, UniProt P22694); competitive binding, scanMAX; PKAC-beta, 1000 nM).
For MUSK (Homo sapiens, UniProt O15146); competitive binding panel; reference: vehicle: remaining binding read 91%.
It gave 98% for remaining binding (CSNK1A1 (Homo sapiens, UniProt P48729); competitive binding panel; reference: vehicle).
For CAMK2A (Homo sapiens, UniProt Q9UQM7); competitive binding panel; reference: vehicle: remaining binding read 99%.
The remaining binding was 87% (CSF1R (Homo sapiens, UniProt P07333); competitive binding scan; autoinhibited form).
For MAP3K4 (Homo sapiens, UniProt Q9Y6R4); competitive binding panel; reference: vehicle: remaining binding read 90%.
NTRK3 (Homo sapiens, UniProt Q16288); competitive binding; TRKC — remaining binding: 98%.
EGFR (Homo sapiens, UniProt P00533); competitive binding panel; reference: vehicle — remaining binding: 67%.
MAP3K20 (Homo sapiens, UniProt Q9NYL2); competitive binding panel, refers to: ZAK; reference: vehicle — remaining binding: 91%.
It gave 100% for remaining binding (FGFR1 (Homo sapiens, UniProt P11362); competitive binding panel; reference: vehicle).
It gave 100% for remaining binding (RIOK2 (Homo sapiens, UniProt Q9BVS4); competitive binding panel; reference: vehicle).

Excerpt of the above (set 2):
With `CN(C)CC#Cc1ccc(OCCCc2sc(N3CCc4cccc(C(=O)Nc5nc6ccccc6s5)c4C3)nc2C(=O)O)c(F)c1` the inhibition was 5.67%.
With `O=C(NCCCC1CCCCC1)c1ccc(CNC(=O)c2cnn(-c3ccccc3)c2C(F)(F)F)cc1` the inhibition was 3.69%.
For `O=C(NCc1ncc(C(F)(F)F)cc1Cl)c1ccc2c(c1)C1(CCS(=O)(=O)CC1)[C@@H](C1CC1)N2S(=O)(=O)c1ccc(F)cc1`, the inhibition was -2.32%.
`O=C(c1ccc(F)cc1)N1CC(COc2ccc(Br)cc2)(C(=O)O)C1` has an inhibition of -2.5%.
`O=C(N[C@H]1CCCCC/C=C\C2C[C@@]2(C(=O)O)NC(=O)[C@@H]2C[C@@H](Oc3ccncc3)CN2C1=O)OC1CCCC1` (stereo partly shown) gave an inhibition of 1.85%.
The inhibition of `CC(=O)c1c(NS(C)(=O)=O)c2cc(-c3ccc(Cl)cc3)c(-c3ccc(Cl)cc3Cl)nc2n(C)c1=O` is reported as -0.601%.
The inhibition of `O=C1NC(c2ccccn2)Sc2ccccc21` (stereo not shown) is reported as -5.37%.
